{"data": "Results pooled from the literature", "note": "A part holds a random share of what one study measured."}
{"data": "Set 1", "target": "RNA binding protein fox-1 homolog 2, RRM domain, GST-SBP tag (RBFOX2, Homo sapiens, UniProt O43251-10, residues 100-194)", "method": "RNA Bind-n-Seq", "form": "RNA", "sample": "in vitro", "tested at": "365 nM", "notes": "natural RNA segment, single round, ends assumed", "baseline": "no-protein control", "direction": "higher = stronger binding", "all sequences stand within": "GGGAGUUCUACAGUCCGACGAUC … UGGAAUUCUCGGGUGCCAA"}
{"Oligonucleotide": "UGACCGUCCUGGUGAGGACCACUGACUCAGAUAAUGCACUUUCCCCUCUGAUCCUGGACUCCCCAUGUCUAGUUCAGACCUAUUUCCUGUUCCCUUGAUAGCUUCGGGUC", "RBNS enrichment (R)": 1.09}
{"Oligonucleotide": "UGUAGCGGCCUGUUGUGCAUGCCACCAUGCUGCUGGCCCGGGGGGAUUUGCUCUGAGUCUCCGGUGCAUCAUUUAAUCUGUUAGGUUCUAGUGUUCCGUCUUGUUUUGUG", "RBNS enrichment (R)": 2.01}
{"Oligonucleotide": "GGAUGAGAGAGACAUUAAAAUUCUGGAGAUGUGCUUUUAUGAUGUUACAGAUCCAAAGACAUAGAGUGAUGUGGGUGUCAGGAGACUGAAGAGAGGUGAAAGGCACACUU", "RBNS enrichment (R)": 2.46}
{"Oligonucleotide": "AGCCUGAUUUUUUUUCUGGUGUGUGUAAAAUACUUCCUAGGAAUACACUGGGCACUUUUGGAAAUAAUGUUUAAAUCAUUCAGGUUGUGUUCCUGUCCCCAAAACAGAUC", "RBNS enrichment (R)": 0.438}
{"Oligonucleotide": "CAUCCUACUCUCAAGGAUGAAGUCUCCAGCCUGUGGAGCCAGCCUAGCUCCUAACUGUCAGGCUGACGGACACCUCCCAGGUCUUGCACCCUCAUGCCAACUCUGCCCCA", "RBNS enrichment (R)": 0.595}
{"Oligonucleotide": "AUUGUGGAUCUGCUAUCUAACAAUGUCAUGGAAAAGUGGUAUCUUAAAAUUUUAGGACCGAUUUCAGAAAUAGUCAAAGGAGCAACAGAACAUUCAUUGUAUUUUGGUCU", "RBNS enrichment (R)": 0.869}
{"Oligonucleotide": "CACCCUAGAUCCAGCCUCAGGAACUAACAAGUUUUGAGAAAAGCAGGUAGUAGAGCAGCAGCUUCGUGCUCUCAGCGGUGGCUGGCUGGCAUUUUUCUCUAGCGUUGUGG", "RBNS enrichment (R)": 0.64}
{"Oligonucleotide": "AAGGCUUGUGAUUUGACCUGAGACAUUUGUUUCAGGUAAUCGUGUAGAAUGAAGUAUCUUAGUUUAAAGGGUAAGAGAGAAGUUGUUUCUGGUUUUUCCUUGCCCCUGUG", "RBNS enrichment (R)": 0.406}
{"data": "Set 2", "target": "Interferon regulatory factor 7, full length, phosphomimetic (IRF7, Homo sapiens, UniProt Q92985, residues 1-503, S471D/S472D/S475D/S476D/S477D/S483D/S484D/S487D)", "method": "protein-binding microarray", "form": "double-stranded DNA, one strand shown", "sample": "in vitro", "tested at": "2200 nM top", "notes": "60-bp whole probe", "added": "salmon DNA 0.4 mg/ml", "baseline": "random background probes", "direction": "higher = stronger binding", "all sequences stand within": "GCCTAGCAC … GTCTTGATTCGCTTGACGCTGCTG", "Residues (chain)": "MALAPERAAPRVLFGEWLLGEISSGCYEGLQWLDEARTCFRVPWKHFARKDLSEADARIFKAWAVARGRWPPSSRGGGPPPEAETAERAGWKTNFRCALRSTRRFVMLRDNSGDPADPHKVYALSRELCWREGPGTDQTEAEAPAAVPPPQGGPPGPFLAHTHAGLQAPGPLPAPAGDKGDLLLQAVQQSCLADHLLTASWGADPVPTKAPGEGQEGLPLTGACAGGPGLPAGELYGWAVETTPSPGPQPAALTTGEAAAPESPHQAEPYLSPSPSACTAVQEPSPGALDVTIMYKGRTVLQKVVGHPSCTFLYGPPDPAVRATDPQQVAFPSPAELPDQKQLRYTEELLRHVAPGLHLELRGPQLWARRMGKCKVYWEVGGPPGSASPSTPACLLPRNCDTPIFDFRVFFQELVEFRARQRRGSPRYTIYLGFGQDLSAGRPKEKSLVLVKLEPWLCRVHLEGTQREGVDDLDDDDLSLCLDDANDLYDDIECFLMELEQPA"}
{"Oligonucleotide": "TTAGGTATCCTTTTCCTTTGGTGCTAG", "fitted relative affinity": "1.81 z-score"}
{"Oligonucleotide": "TTAGGTATCCTTCTCCTTTCGTGCTAG", "fitted relative affinity": "1.78 z-score"}
{"Oligonucleotide": "TTAGGTTTCGACTTTCGGGTAGTGCTA", "fitted relative affinity": "9.42 z-score"}
{"Oligonucleotide": "TTAGGTTTCGTTATCGGTTAGTGCTAG", "fitted relative affinity": "6.88 z-score"}
{"Oligonucleotide": "CCCTTTCTCAACCTCCAGAGGTGCTAG", "fitted relative affinity": "1.99 z-score"}
{"Oligonucleotide": "CACGGACTGGACTATCGGGACGTGCTA", "fitted relative affinity": "-0.898 z-score"}
{"Oligonucleotide": "TTAGGGCTCCTTTTCCTTTAGTGCTAG", "fitted relative affinity": "0.951 z-score"}
{"Oligonucleotide": "TCACATACGAGTTTCCATTTGTGCTAG", "fitted relative affinity": "4.28 z-score"}
{"Oligonucleotide": "GAAAATGCCCTTTTGGTGAGGTGCTAG", "fitted relative affinity": "1.02 z-score"}
{"data": "Set 3", "target": "TATA-box-binding protein 1 (TBP1, Arabidopsis thaliana, UniProt P28147, residues 1-200, full length assumed)", "method": "protein-binding microarray", "form": "double-stranded DNA, one strand shown", "sample": "in vitro", "tested at": "not given", "notes": "k-mer, scored over probes, only values ≥0.25", "direction": "higher = stronger binding", "Residues (chain)": "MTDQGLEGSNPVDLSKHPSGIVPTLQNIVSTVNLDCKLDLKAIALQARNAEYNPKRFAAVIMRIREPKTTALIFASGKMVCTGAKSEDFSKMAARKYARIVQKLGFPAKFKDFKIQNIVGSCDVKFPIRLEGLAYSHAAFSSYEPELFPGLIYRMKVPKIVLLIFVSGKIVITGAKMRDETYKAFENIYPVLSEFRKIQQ"}
{"Oligonucleotide": "AATAAAA", "E-score": 0.412}
{"Oligonucleotide": "ATATATC", "E-score": 0.464}
{"Oligonucleotide": "AGATAAT", "E-score": 0.329}
{"Oligonucleotide": "ATAAGTC", "E-score": 0.314}
{"Oligonucleotide": "CGATATA", "E-score": 0.377}
{"Oligonucleotide": "ATATTGA", "E-score": 0.349}
{"Oligonucleotide": "CTTATAC", "E-score": 0.33}
{"Oligonucleotide": "ACTAAAA", "E-score": 0.253}
{"Oligonucleotide": "ATTTACC", "E-score": 0.255}
{"Oligonucleotide": "GTATATA", "E-score": 0.479}
{"Oligonucleotide": "ACTTATA", "E-score": 0.457}
{"Oligonucleotide": "AATAACA", "E-score": 0.288}
{"data": "Further values, each from its own experiment"}
{"Substance": "PhoQ, residues 284 288 289 292 302 303 SVTLVV", "target": "PhoP, residues 12 14 15 18 19 SEGLL (Escherichia coli, UniProt P23836)", "test": "Sort-seq, refers to: YFP reporter", "test system": "E. coli", "conditions": "PhoQ-PhoP variant library, added: 10 µM Mg2+", "scale": "baseline: high Mg2+ state, higher = stronger signaling", "measurement": "fold induction", "value": 15.2}
{"note": "Some of these lines once more (set 2):"}
{"Oligonucleotide": "TCACATACGAGTTTCCATTTGTGCTAG", "fitted relative affinity": "4.28 z-score"}
{"Oligonucleotide": "TTAGGTTTCGACTTTCGGGTAGTGCTA", "fitted relative affinity": "9.42 z-score"}
{"Oligonucleotide": "TTAGGTATCCTTTTCCTTTGGTGCTAG", "fitted relative affinity": "1.81 z-score"}
